Results pooled from the literature.
Parts stem from different laboratories: compare values within a part only.

Series 1
Species: human
Medium: microsomes or S9
Tested at: 2 µM
Time: 0.5 h
| Structure (SMILES) | remaining compound [%] |
| --- | --- |
| O=C(Nc1ccccc1OCc1cscn1)c1cc(Cl)c[nH]1 | 0.696 |
| Cc1noc(C)c1CC(=O)NCC12CCC=C1NC(=O)CC2 (stereo not shown) | > 99 |
| CN(C)S(=O)(=O)c1cc(C(=O)Nc2ccc(Br)cc2)c(Cl)cc1Cl | 38.9 |
| CS(=O)(=O)NCC1COCCN1C(=O)Nc1ccc2cnccc2c1 (stereo not shown) | 89.5 |
| Cc1cccc2c(=O)n(CC(=O)NCC3CC4c5ccccc5C3c3ccccc34)cnc12 (stereo not shown) | 26.2 |
| Cc1ncc(-c2onc(C)c2C)c(-c2ccco2)n1 | 53.3 |
| O=C(NC1Cc2ccccc2C1)NC1CCCn2ncnc21 (stereo not shown) | 87.1 |
| CN(Cc1ccccc1)Cc1cc(=O)n2nc(-c3ccc(C(C)(C)C)cc3)nc2[nH]1 | 41.3 |
| Cc1ccc(C(=O)C2=CN(c3ccc(N(C)C)cc3)c3ccccc3S2(=O)=O)c(C)c1 | 4.99 |
| Cn1c(Cn2cc(-c3nnco3)ccc2=O)nc2cc(Cl)ccc21 | 97.9 |
| O=C(C1CCOCC1)N1CCCC(Cn2cnc3cccnc32)C1 (stereo not shown) | 95.7 |

Series 2
Technique: exponential regression of PRP log k'
Medium: 1,9-decadiene/PBS
pH: 7.4
| Compound | logD (1,9-decadiene/water) |
| --- | --- |
| COCC(=O)NCCCCCC(=O)N[C@H](C(=O)N1C[C@H](O)C[C@H]1C(=O)NCc1ccc(-c2scnc2C)cc1)C(C)(C)C | -5.03 |
| Cc1ncsc1-c1ccc(CNC(=O)[C@@H]2C[C@@H](O)CN2C(=O)[C@@H](NC(=O)CCCCCNC(=O)C2CCCCC2)C(C)(C)C)cc1 | -2.52 |
| CCOC(=O)[C@@H]1CSCC(=O)N[C@@H](CC(C)C)C(=O)N(C)[C@@H](C)C(=O)N[C@@H](CC(C)C)C(=O)N2CCC[C@@H]2C(=O)N(CC)CC(=O)N[C@@H](CC2CCCCC2)C(=O)N(C)[C@@H](C)C(=O)N[C@@H](CC(C)C)C(=O)N1C | 2.98 |
| CCCC(=O)OCCCCCC(=O)N[C@H](C(=O)N1C[C@H](O)C[C@H]1C(=O)NCc1ccc(-c2scnc2C)cc1)C(C)(C)C | -1.39 |
| CCCCOc1ccc(-c2ccc(C(=O)NCCCCCC(=O)N[C@H](C(=O)N3C[C@H](O)C[C@H]3C(=O)NCc3ccc(-c4scnc4C)cc3)C(C)(C)C)cc2)cc1 | 1.54 |

Series 3
Target: Muscarinic acetylcholine receptor M5 (CHRM5, Homo sapiens, UniProt P08912)
UniProt P08912, sequence (whole entry, looked up): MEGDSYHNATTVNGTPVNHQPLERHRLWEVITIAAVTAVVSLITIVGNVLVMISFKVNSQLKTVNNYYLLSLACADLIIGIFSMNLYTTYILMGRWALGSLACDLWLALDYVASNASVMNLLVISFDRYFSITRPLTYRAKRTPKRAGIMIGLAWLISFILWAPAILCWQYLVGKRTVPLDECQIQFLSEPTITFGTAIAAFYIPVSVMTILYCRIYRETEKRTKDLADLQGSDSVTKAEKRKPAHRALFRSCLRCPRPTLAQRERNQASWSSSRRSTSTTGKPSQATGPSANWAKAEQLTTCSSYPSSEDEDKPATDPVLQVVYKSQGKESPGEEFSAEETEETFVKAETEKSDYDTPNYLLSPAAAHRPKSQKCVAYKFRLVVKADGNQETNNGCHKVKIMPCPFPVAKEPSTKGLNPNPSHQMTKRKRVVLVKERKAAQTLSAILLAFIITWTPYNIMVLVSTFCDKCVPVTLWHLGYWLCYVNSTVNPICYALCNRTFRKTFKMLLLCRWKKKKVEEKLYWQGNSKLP
Effect on: ligand displacement
Tested at: 10 µM
| Structure (SMILES) | inhibition |
| --- | --- |
| COc1cccc(NC(=O)c2nc3scc(CN(C)Cc4ccccc4)c3c(=O)[nH]2)c1 | 2.66% |
| O=C(NS(=O)(=O)c1ccc(NCC2CCOCC2)c([N+](=O)[O-])c1)c1ccc(N2CCN(Cc3ccc(C(F)(F)F)cc3-c3ccc(Cl)cc3)CC2)cc1Oc1cnc2[nH]ccc2c1 | 10% |
| CC1CCN(c2ccnc(NCc3cn(C)cn3)n2)CC1 | 25.1% |
| CCC(=NO)C(C)=Cc1ccc(F)c(C)c1 | 2.77% |
| CN([C@@H]1CCc2c(CC(=O)O)c3ccccc3n2C1)S(=O)(=O)c1ccc(F)cc1 | 6.97% |
| Cc1c(NC(=O)c2cc(C(N)=O)nc3cc(F)ccc23)c(C(F)(F)F)nn1Cc1ccc(C#N)cc1 | 4.88% |
| CN1CCN(C(=O)C(C)(C)c2ccc(C(=O)Nc3cn4cc(-c5cc(C(C)(C)C)cc(C(C)(C)C)c5)ccc4n3)cc2)CC1 | 30.8% |
| Cc1ncc(-c2cc(Cl)ccc2F)cc1-n1c(=O)n(CC(N)=O)c2ccccc21 | 1.56% |
| CC1=C(C#N)C(c2ccc3[nH]nc(C)c3c2)C(C#N)=C(C)N1 | 5.48% |
| CO[C@H]1CC[C@H](CNc2ccc(S(=O)(=O)NC(=O)c3ccc(N4CCN(CC5=C(c6ccc(Cl)cc6)CC(C)(C)CC5)CC4)cc3Oc3cnc4[nH]ccc4c3)cc2[N+](=O)[O-])CC1 | 12.5% |
| NS(=O)(=O)c1cc(NC(=O)Cc2ccccc2)ccc1Oc1cccc(Cl)c1 | 16.7% |

Series 4
Target: Receptor tyrosine-protein kinase erbB-2 (ERBB2, Homo sapiens, UniProt P04626)
Effect on: enzyme activity
Mode: inhibitor
Tested at: 0.5 µM
Relative to: control
| Compound | remaining activity [%] |
| --- | --- |
| O=c1cc(N2CCOCC2)oc2c(-c3ccccc3)cccc12 | 104 |
| O=C1Cc2c([nH]c3ccc(Br)cc23)-c2ccccc2N1 | 103 |
| COc1ccc2c(c1)c(C1=C(c3c[nH]c4ccccc34)C(=O)NC1=O)cn2CCCN(C)C | 115 |
| Oc1cccc(-c2nc(N3CCOCC3)c3oc4ncccc4c3n2)c1 | 105 |
| Cc1ccc(S(=O)(=O)/C=C/C#N)cc1 | 94.2 |
| CN(C)S(=O)(=O)c1ccc2c(c1)/C(=C/c1cc3c([nH]1)CCCC3)C(=O)N2 | 101 |
| N#Cc1cnc2cnc(NCc3cccnc3)cc2c1Nc1ccc(F)c(Cl)c1 | 91.7 |
